Assay results from different studies.
Compare with care: the assays were run in different laboratories. ± marks the error that the study gave.
ABCG2: Broad substrate specificity ATP-binding cassette transporter ABCG2 (ABCG2, Homo sapiens, UniProt Q9UNQ0)
UniProt Q9UNQ0, sequence (whole entry, looked up): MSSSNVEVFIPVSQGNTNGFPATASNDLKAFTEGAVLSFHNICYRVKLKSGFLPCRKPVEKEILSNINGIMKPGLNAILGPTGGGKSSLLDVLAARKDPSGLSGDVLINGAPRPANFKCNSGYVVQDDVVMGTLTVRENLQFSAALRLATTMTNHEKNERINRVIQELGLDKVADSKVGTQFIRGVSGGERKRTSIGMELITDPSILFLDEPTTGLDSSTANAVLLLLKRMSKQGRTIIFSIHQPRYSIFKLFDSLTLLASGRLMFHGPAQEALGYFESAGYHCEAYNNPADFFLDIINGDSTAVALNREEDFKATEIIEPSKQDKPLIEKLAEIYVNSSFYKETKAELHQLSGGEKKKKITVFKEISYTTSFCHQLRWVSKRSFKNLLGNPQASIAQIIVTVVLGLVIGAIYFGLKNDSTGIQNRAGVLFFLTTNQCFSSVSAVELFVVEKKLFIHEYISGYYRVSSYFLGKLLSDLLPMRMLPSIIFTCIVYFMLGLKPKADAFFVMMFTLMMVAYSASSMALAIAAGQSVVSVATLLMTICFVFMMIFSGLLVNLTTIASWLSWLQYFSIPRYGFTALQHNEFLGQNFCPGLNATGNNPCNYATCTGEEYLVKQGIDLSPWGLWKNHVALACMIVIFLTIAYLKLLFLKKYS
ALB: Albumin (ALB, Homo sapiens, UniProt P02768)

O=C(/C=C/c1ccc([N+](=O)[O-])cc1)c1ccc2ccccc2c1 — inhibition (ABCG2; mitoxantrone efflux, flow cytometry; HEK293 transfected with ABCG2; 5 µM, 30 min, with: mitoxantrone; relative to: 5 µM GF120918 as 100%): 16.7 ± 6.8%
Cc1cc(C)c(-c2cc(C)c(OP(=O)([O-])OCCC[C@H](C(=O)[O-])N3CCN(CC(=O)[O-])CCN(Cc4ccccc4[O-])CCN(CC(=O)[O-])CC3)cc2C)c(C)c1.[Gd+3] — rotational correlation time (ALB; albumin binding, variable temperature NMRD fit; albumin-bound complex; 0.1 mM, pH 7.4, fit 5-35 °C data, with: HSA 0.66 mM): 20 ns
O=C(O)C1OC(Oc2ccc3oc(-c4ccccc4)cc(=O)c3c2)C(O)C(O)C1O (stereo not drawn) — log CLint (ABCG2; substrate, glucuronide efflux; HeLa-UGT1A9 cells): 0.75
Cc1cc(C)c(-c2cc(C)c(OP(=O)([O-])OCCC[C@H](C(=O)[O-])N3CCN(CC(=O)[O-])CCN(CC(=O)NCCC(=O)[O-])CCN(CC(=O)[O-])CC3)cc2C)c(C)c1.[Gd+3] — activation enthalpy of water exchange (ALB; variable temperature NMRD; HSA-bound complex; concentration not given): 7.39 kcal/mol
[11CH3]Oc1ccc(C(=O)Nc2c(-c3cccs3)nc3ccccn23)cc1 — total distribution volume (δ-containing GABAA receptor; pig (female Landrace × Yorkshire × Duroc), striatum; intravenous bolus, dose not given; relative to: baseline): 4.5 mL/cm³
[64Cu+2].c1ccc(CNCc2ccc(CN3CCCN4CCNCCCN(CC4)CC3)cc2)nc1 — tissue uptake (CXCR4; NOD/SCID mouse, U87 and U87-stb-CXCR4 xenografts, liver; iv, 60 min, ex vivo): 91.5 ± 6.03 %ID/g
O=C(/C=C/c1cccs1)c1ccc2c(c1)OCO2 — inhibition (ABCG2; mitoxantrone efflux, flow cytometry; HEK293 transfected with ABCG2; 5 µM, 30 min, with: mitoxantrone; relative to: 5 µM GF120918 as 100%): 18.2 ± 5.2%
O=C(O)C1OC(Oc2c(-c3ccccc3)oc3ccc(O)cc3c2=O)C(O)C(O)C1O (stereo not drawn) — Vmax (ABCG2; substrate, glucuronide efflux; HeLa-UGT1A9 cells): 34.7 ± 1.3 pmol/mg/min
[64Cu+2].c1cnc(CNCc2ccc(CN3CCCN4CCNCCCN(CC4)CC3)cc2)nc1 — tissue uptake (CXCR4; NOD/SCID mouse, U87 and U87-stb-CXCR4 xenografts, blood; iv, 30 min, ex vivo): 3.08 ± 0.47 %ID/g

Some of these lines once more:
O=C(/C=C/c1ccc([N+](=O)[O-])cc1)c1ccc2ccccc2c1 — inhibition (ABCG2; mitoxantrone efflux, flow cytometry; HEK293 transfected with ABCG2; 5 µM, 30 min, with: mitoxantrone; relative to: 5 µM GF120918 as 100%): 16.7 ± 6.8%
